Assay results collected from several papers.
Lines come from different studies, so protocols differ. Numbers after ± are the reported error.

SMILES	assay	system	conditions	how to read	Cmax
COCCCCn1c(C(=O)N(CC(C)C)[C@@H]2CNC[C@H](C(=O)N3CCOCC3)C2)nc2ccccc21	–	non-elderly human, plasma	oral, 80 mg once daily, day 1	–	0.764 µg/mL
NS(=O)(=O)OC[C@@H]1C[C@@H](n2ccc3c(N[C@H]4CCc5ccccc54)ncnc32)C[C@@H]1O	–	human	intravenous, 8 mg/m^2 single dose, day 8, added: itraconazole	–	0.0668 µg/mL
CN[C@@H]1COc2c(S(=O)(=O)NC(=O)Nc3c4c(cc5c3CCC5)CCC4)cnn2C1	–	human	oral, 600 mg, high-fat meal, mean	–	24.1 µg/mL
O=C1Nc2ccc(Cl)cc2[C@@](C#CC2CC2)(C(F)(F)F)O1	–	healthy human, serum	oral, 400 mg single dose, added: ezetimibe	–	0.62 ± 0.24 µg/mL
CO[C@H]1C[C@@H]2CC[C@@H](C)[C@@](O)(O2)C(=O)C(=O)N2CCCC[C@H]2C(=O)O[C@H]([C@H](C)C[C@@H]2CC[C@@H](OCCO)[C@H](OC)C2)CC(=O)[C@H](C)/C=C(\C)[C@@H](O)[C@@H](OC)C(=O)[C@H](C)C[C@H](C)/C=C/C=C/C=C/1C	–	healthy adult human, blood	0.75 mg single dose, geometric mean, added: ritonavir-containing 3D regimen	–	0.0158 µg/mL
CC(C)(Sc1ccncc1-c1ccc(C#N)c2ccccc12)C(=O)O	–	human, male, Japanese, plasma	oral, 5 mg, day 6, fed, single dose	–	0.00921 µg/mL
CCCCOC(=O)N1CCN(C(=O)[C@H](CP(=O)(O)O)NC(=O)c2cc(N3CC[C@H](OC)C3)nc(-c3ccccc3)n2)CC1	–	healthy human, plasma	subcutaneous, 4 mg, added: rifampin 600 mg i.v.	geometric mean	0.21 µg/mL
Cc1ccc(NC(=O)c2ccc(CN3CCN(C)CC3)cc2)cc1Nc1nccc(-c2cncc(-c3oncc3C)c2)n1	–	older healthy human adults, plasma	oral, 250 mg single dose, fed, mean	–	7.22 µg/mL
Cc1cn(-c2cc(NC(=O)c3ccc(C)c(Nc4nccc(-c5cccnc5)n4)c3)cc(C(F)(F)F)c2)cn1	–	human, serum	oral, 300 mg twice daily, steady state	–	1.17 µg/mL
O=C1Nc2cc3[nH]nc(-c4ccncc4)c3cc2CN1Cc1ccccc1	–	human, plasma	intravenous infusion, 3.6 mg/kg, infusion 1 h	–	1.41 to 3.63 µg/mL
CCN1CCN(Cc2ccc(Nc3ncc(F)c(-c4cc(F)c5nc(C)n(C(C)C)c5c4)n3)nc2)CC1	–	human patients, plasma	oral, 150 mg single, geometric mean	–	0.123 µg/mL
Cc1nc2cccc(N)c2c(=O)n1C1CCC(=O)NC1=O (centres unmarked)	–	healthy adult human, plasma	oral, 3 mg, geometric mean, added: rifampin 600 mg once daily	–	0.066 µg/mL
CC1(C)CCC(CN2CCN(c3ccc(C(=O)NS(=O)(=O)c4ccc(NCC5CCOCC5)c([N+](=O)[O-])c4)c(Oc4cnc5[nH]ccc5c4)c3)CC2)=C(c2ccc(Cl)cc2)C1	–	human, plasma	oral, 400 mg, steady state, added: idasanutlin 200 mg	–	1.11 µg/mL
COc1cc2ncnc(Nc3ccc(F)c(Cl)c3)c2cc1OCCCN1CCOCC1	–	human, plasma	oral, 250 mg, median	–	0.25 µg/mL
COc1ccc2nc([S@@+]([O-])Cc3ncc(C)c(OC)c3C)[nH]c2c1	–	human, CYP2C19 intermediate metabolizers, plasma	oral, 40 mg/day, day 5	–	6.58 ± 5.29 µg/mL
O=C(/C=C/c1cccc(S(=O)(=O)Nc2ccccc2)c1)NO[C@@H]1O[C@H](C(=O)O)[C@@H](O)[C@H](O)[C@H]1O	–	human mild liver dysfunction, plasma	intravenous, 400 mg/m^2, 30 min infusion, cycle 1 day -7, added: belinostat 400 mg/m^2 iv	–	90.8 µg/mL
CC[C@H](C)[C@H](NC(=O)[C@H](CC(C)C)NC(=O)[C@H](Cc1c[nH]c2ccccc12)NC(=O)[C@H](C)NC(=O)[C@@H](NC(=O)[C@H](Cc1ccccc1)NC(=O)[C@H](CC(=O)O)NC(=O)[C@H](CCCNC(=N)N)NC(=O)[C@H](C)NC(=O)[C@H](C)NC(=O)[C@H](CC(C)C)NC(=O)[C@H](C)NC(=O)[C@H](CC(=O)O)NC(=O)[C@H](CC(C)C)NC(=O)[C@@H](NC(=O)[C@@H](NC(=O)[C@H](C)NC(=O)[C@H](CC(C)C)NC(=O)[C@H](CCC(=O)O)NC(=O)[C@H](CO)NC(=O)[C@H](CO)NC(=O)[C@H](Cc1ccccc1)NC(=O)[C@@H](NC(=O)CNC(=O)[C@H](CCC(=O)O)NC(=O)CNC(=O)[C@@H](N)Cc1cnc[nH]1)[C@@H](C)O)[C@@H](C)O)[C@@H](C)CC)[C@@H](C)CC)C(=O)N[C@@H](C)C(=O)N[C@H](C(=O)N[C@@H](CCCCN)C(=O)N[C@H](C(=O)N[C@H](C(=O)N[C@@H](CC(=O)O)C(=O)N[C@@H](CCCCN)C(=O)N[C@@H](CCCCN)C(=O)N[C@@H](CCCCN)C(=O)N[C@@H](CCCCN)C(=O)N[C@@H](CCCCN)C(=O)N[C@@H](CCCCN)C(N)=O)[C@@H](C)O)[C@@H](C)CC)[C@@H](C)O	immunoaffinity LC-MS/MS	healthy human subjects, plasma	subcutaneous, 5 mg once weekly, day 36 after 6 doses, steady state, geometric mean	–	0.000223 µM
Cn1cnc2c(F)c(Nc3ccc(Br)cc3Cl)c(C(=O)NOCCO)cc21	–	human cancer patients, plasma	oral, 75 mg, cycle 1 day 1	–	1.5 µg/mL
O=C(c1ccc(OCCN2CCCCC2)cc1)c1c(-c2ccc(O)cc2)sc2cc(O[C@@H]3O[C@H](C(=O)O)[C@@H](O)[C@H](O)[C@H]3O)ccc12	–	human, plasma	oral, 60 mg raloxifene, chronic green tea	–	0.009 µM
NCCCS(=O)(=O)O	–	human, plasma	oral, 100 mg loose-filled capsule, single dose	–	0.769 ± 0.228 µg/mL
CCOc1ccc(Cc2cc([C@]34OC[C@](CO)(O3)[C@@H](O)[C@H](O)[C@H]4O)ccc2Cl)cc1	–	healthy human, plasma	oral, 15 mg, 20% glucose solution, added: glimepiride 1 mg	–	0.147 µg/mL
CS(=O)(=O)n1cc2c(n1)CN([C@H]1CO[C@H](c3cc(F)ccc3F)[C@@H](N)C1)C2	–	healthy male human, plasma	oral, 25 mg once weekly, day 1, fasted, geometric mean	–	0.61 µM
C=CC(=O)Nc1cc(Nc2ncc(C(=O)OC(C)C)c(-c3cn(C)c4ccccc34)n2)c(OC)cc1N(C)CCN(C)C	–	human, fasted	oral, 80 mg single dose, arithmetic mean	–	0.0176 µg/mL
C=C(C)[C@@H]1CC[C@]2(NCCN3CCS(=O)(=O)CC3)CC[C@]3(C)[C@H](CC[C@@H]4[C@@]5(C)CC=C(C6=CC[C@@](CF)(C(=O)O)CC6)C(C)(C)[C@@H]5CC[C@]43C)[C@@H]12	–	human, HIV-1 treatment-naive, plasma	oral, 10 mg once daily, day 8	–	0.06 µg/mL
CC(C)c1nc(CN(C)C(=O)N[C@H](C(=O)N[C@@H](Cc2ccccc2)C[C@H](O)[C@H](Cc2ccccc2)NC(=O)OCc2cncs2)C(C)C)cs1	–	human, plasma	oral, 100 mg, first dose of twice-daily regimen	–	0.373 µg/mL
CCOc1cc([C@@H](CS(C)(=O)=O)N2C(=O)c3cccc(NC(C)=O)c3C2=O)ccc1OC	–	healthy human, both sexes, plasma	oral, 30 mg single dose, added: rifampicin 600 mg i.v. infusion over 30 min	–	0.324 µg/mL
O=C([O-])CCCCCCCNC(=O)c1ccccc1O.[Na+]	–	human, moderate hepatic impairment, plasma	oral, once daily, day 10, after dose 10, geometric mean	–	2.36 µg/mL

SMILES	assay	system	conditions	how to read	Cmax
CCOc1ccc(Cc2cc([C@@H]3S[C@H](CO)[C@@H](O)[C@H](O)[C@H]3O)c(OC)cc2C)cc1	–	human, plasma	oral, 10 mg/day, day 7, multiple dose before breakfast	–	0.475 ± 0.111 µg/mL
CC(C)(C(=O)NCC(F)(F)C(F)(F)F)C(=O)N[C@@H]1C(=O)Nc2ccccc2-c2ccccc21	–	human, plasma	oral, 5 mg, day 15, added: bevacizumab	–	0.117 µg/mL
CC(C)[C@@H](CS(=O)(=O)C(C)C)N1C(=O)[C@@](C)(CC(=O)O)C[C@H](c2cccc(Cl)c2)[C@H]1c1ccc(Cl)cc1	–	human, plasma	oral, 60 mg, new tablet, fasted, geometric LS mean	–	0.431 µg/mL
O=C(CCCCCCC(=O)Nc1ccccc1)NO	–	human, serum	oral, 400 mg three times daily, 3 days, median, added: idarubicin	–	1.55 µM
COc1c(OCCCN2CCOCC2)ccc2c1N=C(NC(=O)c1cnc(N)nc1)N1CCN=C21	–	human cancer patients, plasma	intravenous, 0.4 mg/kg weekly, cycle 1 day 15, geometric mean, added: refametinib 50 mg twice daily	–	0.154 µg/mL
C#Cc1cccc(Nc2ncnc3cc(OCCOC)c(OCCOC)cc23)c1	–	human, plasma	oral, 75 mg once daily, steady state, geometric mean, added: ritonavir 200 mg once daily	–	1.68 µg/mL
COc1ccnc(C[S+]([O-])c2nc3ccc(OC(F)F)cc3[nH]2)c1OC (centres unmarked)	–	human, CYP2C19 rapid metabolizers, plasma	oral, 40 mg/day, day 5	–	5.46 µg/mL
C[C@H](N)C(=O)N1C[C@H](CCCB(O)O)[C@](N)(C(=O)O)C1	–	human patients, plasma	oral, 150 mg single dose, cycle 1 day 1	–	2.08 ± 0.632 µg/mL
Cc1cccc(C)c1OCC(=O)N[C@@H](Cc1ccccc1)[C@@H](O)C[C@H](Cc1ccccc1)NC(=O)[C@H](C(C)C)N1CCCNC1=O	–	human, HIV+/HCV+ with cirrhosis, plasma	oral, dose not given, total drug, steady state, median, added: lopinavir/ritonavir twice daily	–	10.2 µg/mL
Cc1ccc(C(=O)NC2CC2)cc1-n1ncc(C(=O)c2cccc(C#N)c2)c1N	–	healthy human	oral, 14 mg single, geometric mean	–	0.111 µg/mL
CC(C)(Sc1ccncc1-c1ccc(C#N)c2ccccc12)C(=O)O	–	human, plasma	oral, 10 mg, added: febuxostat 80 mg	–	0.0161 µg/mL
CCCCCCCCCCCCCCC[C@H](O)[C@@H](N)CO	–	human, phase I, plasma	intravenous, 360 mg/m^2, day 1, monotherapy	–	16.1 µM
Cc1nc(-c2ccc(OCC(C)C)c(C#N)c2)sc1C(=O)O	–	human, plasma	oral, 40 mg, added: verinurad 5 mg	–	0.517 µg/mL
CC[C@H](C)[C@@H]1NC(=O)[C@H](CCCNC(=N)N)NC(=O)[C@H](CC(=O)O)NC(=O)[C@H](CC(C)C)NC(=O)[C@H](CCCCN)NC(=O)[C@H](CC(C)C)NC(=O)CNC(=O)[C@H](Cc2ccccc2)NC(=O)[C@@H](NC(=O)CNC(=O)[C@H](CCCCN)NC(=O)[C@H](CO)NC(=O)[C@H](CC(C)C)NC(=O)CNC(=O)[C@H](CCCCN)NC(=O)[C@H](CCCCN)NC(=O)[C@H](CC(N)=O)NC(=O)[C@H](C)NC(=O)CNC(=O)[C@H](CCCCN)NC(=O)[C@H](Cc2ccc(O)cc2)NC(=O)[C@H](CCCCN)NC(=O)[C@H](CCCNC(=N)N)NC(=O)[C@H](C)NC(=O)[C@H](CC(N)=O)NC(=O)[C@@H]2CCCN2C(=O)[C@H](Cc2c[nH]cn2)NC(=O)[C@H](CCC(=O)O)NC(=O)[C@H](CCC(N)=O)NC(=O)CNC(=O)[C@@H]2CCCN2)CSSC[C@@H](C(=O)O)NC(=O)CNC(=O)[C@H](CC(C)C)NC(=O)CNC(=O)[C@H](CO)NC(=O)[C@H](CCSC)NC(=O)[C@H](CO)NC(=O)CNC1=O	ECLA	human, plasma	subcutaneous, 15 µg/kg once daily, day 1	–	0.00718 µg/mL
Cc1nc(-c2ccc(OCC(C)C)c(C#N)c2)sc1C(=O)O	–	human male, plasma	oral, 80 mg once daily, day 7 or 21, geometric mean	–	1.66 µg/mL
Nc1ccn([C@@H]2O[C@H](CO)[C@@H](O)C2(F)F)c(=O)n1	–	human cancer patients, plasma	intravenous, 1000 mg/m^2, cycle 1 day 1, given alone	–	15.1 µg/mL
CN1CC(=O)N2[C@H](c3ccc4c(c3)OCO4)c3[nH]c4ccccc4c3C[C@@H]2C1=O	–	human	oral, 40 mg, free combination, US-sourced, fasted, geometric mean, added: macitentan 10 mg	–	0.506 µg/mL
Cc1cc(C)c2c(c1)[C@@H](N(Cc1cc(C(F)(F)F)cc(C(F)(F)F)c1)c1nnn(C)n1)CCCN2C[C@H]1CC[C@H](C(=O)O)CC1	–	human, plasma	oral, 300 mg once daily, steady state, geometric mean	–	0.744 µg/mL
CN1C(=O)[C@@H](NC(=O)c2nnc(Cc3ccccc3)[nH]2)COc2ccccc21	–	human male, plasma	oral, 60 mg twice daily, day 14	–	0.845 µg/mL
CON(C)C(=O)N1N=C(c2cc(F)ccc2F)S[C@@]1(CCCN)c1ccccc1	–	human patients, plasma	intravenous, 1.8 mg/m2, cycle 1 day 3	–	0.0471 µg/mL
C=C(C)[C@@H]1CC[C@]2(NCCN3CCS(=O)(=O)CC3)CC[C@]3(C)[C@H](CC[C@@H]4[C@@]5(C)CC=C(C6=CC[C@@](CF)(C(=O)O)CC6)C(C)(C)[C@@H]5CC[C@]43C)[C@@H]12	–	human	oral, 100 mg once daily, day 14, multiple ascending dose	–	1.18 µg/mL
O=C(Cc1cccc(OC(F)(F)F)c1)Nc1ccc(CCCCc2nnc(NC(=O)Cc3ccccn3)s2)nn1	–	human patients, plasma	oral, 150 mg three times daily fasted, cycle 1 day 15 steady state	–	1.44 µg/mL
O=CC[C@@H](O)[C@H](O)[C@H](O)CO	HPLC-fluorescence	human patients, plasma	oral, 45 mg/kg/day, cycle 1	–	449 µM
O=C(Nc1c(Cl)cncc1Cl)c1ccc(OC(F)F)c(OCC2CC2)c1	–	human adolescents, 12-17 years, plasma	topical, 0.3% cream once daily, day 15	–	0.00127 µg/mL
O=C(NCc1ccncc1)C12CC3CC(C1)CC(c1ccc(Cl)cc1)(C3)C2	–	human patients, plasma	oral, 750 mg, day 1 and day 28 combined	–	5.56 ± 1.38 µg/mL
Nc1ccc(-c2nc([C@H]3CCc4cc(-c5cc(Cl)ccc5-n5cnnn5)cc(=O)n43)c(F)[nH]2)c(F)n1	–	human, plasma	oral, 150 mg once daily, fed, day 1	–	1.05 µg/mL
